# Measurements from different studies.
# Compare with care: the assays were run in different laboratories.
# T1: RNA aptamer, tobramycin-binding; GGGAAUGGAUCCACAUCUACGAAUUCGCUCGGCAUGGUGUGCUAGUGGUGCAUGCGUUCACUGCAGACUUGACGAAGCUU
# T2: RNA aptamer A9G; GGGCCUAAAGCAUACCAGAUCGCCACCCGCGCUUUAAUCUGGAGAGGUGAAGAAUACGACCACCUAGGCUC
# T3: RNA aptamer GAA^A junction to GAG^A; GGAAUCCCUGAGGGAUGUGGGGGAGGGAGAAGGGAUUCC
# T4: RNA aptamer; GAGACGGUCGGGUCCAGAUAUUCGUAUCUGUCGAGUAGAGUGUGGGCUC
# T5: RNA aptamer A13U; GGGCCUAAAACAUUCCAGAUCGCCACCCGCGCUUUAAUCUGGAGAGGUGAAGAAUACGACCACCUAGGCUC
# T6: RNA aptamer, 2'-F pyrimidines; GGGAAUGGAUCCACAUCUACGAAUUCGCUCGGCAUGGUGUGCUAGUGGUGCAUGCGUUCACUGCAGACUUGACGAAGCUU
# T7: RNA aptamer; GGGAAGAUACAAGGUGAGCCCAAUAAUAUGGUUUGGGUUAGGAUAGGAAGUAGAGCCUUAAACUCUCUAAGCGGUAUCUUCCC
# T8: RNA aptamer; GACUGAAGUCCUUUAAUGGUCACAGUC
# T9: RNA aptamer G51U; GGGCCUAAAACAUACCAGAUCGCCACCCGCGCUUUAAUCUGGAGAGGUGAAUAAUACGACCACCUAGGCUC
target,assay,setting,quantity,result,Structure (SMILES)
"T1, RNA aptamer, tobramycin-binding",SPR,apparent,Kd,0.00968 µM,CN[C@@H]1[C@H](O[C@H]2[C@H](O[C@H]3[C@H](O)[C@@H](O)[C@H](N=C(N)N)[C@@H](O)[C@@H]3N=C(N)N)O[C@@H](C)[C@]2(O)C=NNC(=O)CCOCCOCCOCCOCCNC(=O)CCCC[C@@H]2SC[C@@H]3NC(=O)N[C@@H]32)O[C@@H](CO)[C@H](O)[C@H]1O
"T2, RNA aptamer A9G",fluorescence titration,"pH 7.5, 25 °C, MgCl2 10 mM",Kd,0.445 µM,CN(C)[C@@H]1C(=O)C(C(N)=O)=C(O)[C@@]2(O)C(=O)C3=C(O)c4c(O)cccc4[C@@](C)(O)[C@H]3[C@H](O)[C@@H]12
"T3, RNA aptamer GAA^A junction to GAG^A",fluorescence titration,,binding,binds weakly,CN1C=C/C(=C/C=C/c2sc3ccccc3[n+]2CC(=O)NCCOCCOCCOCCNC(=O)CCCC[C@@H]2SC[C@@H]3NC(=O)N[C@@H]32)c2ccccc21
"T4, RNA aptamer","competition with tracer, competitor, fluorescence quenching",,binding,binds weakly,CC1=N/C(=C\c2ccc(OCc3ccc(B(O)O)cc3)c(F)c2)C(=O)N1C
"T5, RNA aptamer A13U",fluorescence titration,"pH 7.5, 25 °C, MgCl2 10 mM",Kd,1.7 µM,CN(C)C1C(O)=C(C#N)C(=O)C2(O)C(O)=C3C(=O)c4c(O)cccc4C(C)(O)C3CC12 (stereo not drawn)
"T6, RNA aptamer, 2'-F pyrimidines",SPR,apparent,Kd,0.0584 µM,CNC1C(OC2OC(CO)C(N)C(O)C2O)OC2CC(N)C(OC3C(N)CC(NC(=O)CCOCCOCCOCCOCCOCCOCCOCCOCCOCCOCCOCCOCCNC(=O)CCCC[C@@H]4SC[C@@H]5NC(=O)N[C@@H]54)C(O)C3O)OC2C1O (stereo partly drawn)
"T7, RNA aptamer","competition with tracer, competitor, fluorescence quenching",,binding,binds weakly,CC1=N/C(=C\c2cc(Br)c(OC(=O)c3ccccc3SSc3ccccn3)c(Br)c2)C(=O)N1C
"T8, RNA aptamer",ITC,NaCl 200 mM,binding,binds weakly,NC[C@@H]1O[C@H](O[C@H]2[C@@H](O)[C@H](O[C@@H]3[C@@H](O)[C@H](N)C[C@H](N)[C@H]3O[C@H]3O[C@H](CN)[C@@H](O)[C@H](O)[C@H]3N)O[C@@H]2CO)[C@H](N)[C@@H](O)[C@@H]1O
"T9, RNA aptamer G51U",fluorescence titration,"pH 7.5, 25 °C, MgCl2 10 mM",Kd,0.00293 µM,CN(C)[C@@H]1C(=O)C(C(N)=O)=C(O)[C@@]2(O)C(=O)C3=C(O)c4c(O)cccc4[C@@](C)(O)[C@H]3C[C@@H]12
